Measurements of several laboratories.
Lines come from different studies, so protocols differ. ± gives the spread as reported.

Molecule = CC1(C)CC(=O)C2=C(C1)Nc1cc(C(=O)c3ccccc3)ccc1NC2c1ccc(N2CCCCC2)cc1 (stereo not drawn); cell line = SH-SY5Y; test = cell growth or viability, MTS; EC50 = 15 µM
Molecule = CCNC(=O)Nc1ccc(S(=O)(=O)Oc2cccnc2I)cc1; cell line = THP-1 cells; test = CD11b+CD14+ differentiation, flow cytometry; conditions = 120 h; EC50 = 11 µM
Molecule = CC1(C)CC(=O)C2=C(C1)Nc1cc(C(=O)c3ccccc3)ccc1NC2c1ccc(N2CCOCC2)cc1 (stereo not drawn); cell line = SH-SY5Y; test = cell growth or viability, MTS; EC50 = 19.8 µM
Molecule = Cc1nn(-c2nc3ccc(Cl)c(Cl)c3[nH]2)c(O)c1C1OC(=O)c2ccccc21 (stereo not drawn); cell line = RAW-ISG; test = IFN reporter gene, inhibitor; conditions = added: HT-DNA; EC50 = 2.62 µM
Molecule = CNC(=O)c1cc(O[C@H]2CC[C@H](NC(=O)Nc3ccc(Cl)c(C(F)(F)F)c3)CC2)ccn1; cell line = Huh-7; test = cell growth or viability, MTT; conditions = 72 h; EC50 = 8 µM
Molecule = CCN(CC)c1ccc(C2Nc3ccc(C(F)(F)F)cc3NC3=C2C(=O)CCC3)cc1 (stereo not drawn); cell line = SH-SY5Y; test = cell growth or viability, MTS; EC50 = > 50 µM
Molecule = COc1cc2c(cc1OC)C(=O)N(CCCCN1C(=O)/C(=N\NC(=S)N(C)C)c3ccccc31)CC2; cell line = pancreatic cancer cell lines; test = cell viability; conditions = 48 h, over all lines tested; EC50 = 2.18 to 10.3 µM
Molecule = N=C(N)NCCC[C@H](NC(=O)[C@@H]1CCCN1C(=O)[C@@H]1CSSC[C@H](N)C(=O)N[C@@H](Cc2ccc(O)cc2)C(=O)N[C@@H](Cc2ccccc2)C(=O)N[C@@H](CCC(N)=O)C(=O)N[C@@H](CC(N)=O)C(=O)N1)C(=O)NCC(N)=O; cell line = hiPSC-derived cardiomyocytes; test = intracellular Ca2+ increase, FLIPR; EC50 = 0.121 µM
Molecule = insulin icodec; cell line = rat primary adipocytes; test = lipogenesis, agonist, [3H]glucose incorporation into lipid; conditions = 0.1% HSA; EC50 = 0.135 µM
Molecule = CN(C)c1ccc(C2Nc3ccc(C(=O)c4ccccc4)cc3NC3=C2C(=O)CC(C)(C)C3)cc1 (stereo not drawn); cell line = SH-SY5Y; test = cell growth or viability, MTS; EC50 = 15.3 µM
Molecule = N[C@@H](CS(=O)(=O)O)C(=O)O; cell line = cerebellar granule cells; test = neuroprotection; EC50 = 23 µM
Molecule = CCN(CC)c1ccc(C2Nc3ccc(Cl)cc3NC3=C2C(=O)CC(C)(C)C3)cc1 (stereo not drawn); cell line = SH-SY5Y; test = cell growth or viability, MTS; EC50 = > 50 µM
Molecule = NC(=S)N/N=C1\C(=O)Nc2ccccc21; cell line = MIA PaCa-2; test = cell viability, MTT; conditions = 48 h; EC50 = > 100 µM
Molecule = C=C(C)[C@@H]1CC[C@]2(CO[C@@H]3O[C@@H](C)[C@H](O)[C@@H](O)[C@H]3O)CC[C@]3(C)[C@H](CC[C@@H]4[C@@]5(C)CC[C@H](O[C@@H]6O[C@@H](C)[C@H](O)[C@@H](O)[C@H]6O)C(C)(C)[C@@H]5CC[C@]43C)[C@@H]12; cell line = RAW 264.7; test = NO production, inhibitor, Griess; conditions = 24 h, added: LPS 100 ng/mL; EC50 = 14 ± 1 µM
Molecule = CCOC(=O)c1[nH]c2cc(Cl)ccc2c1C(C(=O)NC(C)(C)C)N(C=O)Cc1ccc(Cl)cc1 (single isomer, unassigned; (-)); cell line = MOLM-13; test = metabolic activity, WST-1; conditions = 48 h; EC50 = 25.2 µM
Molecule = COc1cc([C@@H]2c3cc4c(cc3[C@@H](O[C@@H]3O[C@@H]5CO[C@@H](c6cccs6)O[C@H]5[C@H](O)[C@H]3O)[C@H]3COC(=O)[C@H]23)OCO4)cc(OC)c1O; cell line = Trp53-null mouse neurospheres; test = cell proliferation; conditions = 72 h; EC50 = 0.11 µM
Molecule = O=c1cc(-c2ccc([N+](=O)[O-])cc2)[nH]c2c(-c3ccc(Cl)cc3)c(Cc3ccccc3)nn12; cell line = MCF-10A; test = cell growth or viability, ATP luminescence; EC50 = 10 µM
Molecule = salvianolic acid B; cell line = human gel-filtered platelets; test = platelet aggregation inhibition; conditions = added: thrombin 0.02 U/mL; EC50 = 44 ± 10 µM
Molecule = N[C@@H](CCC(=O)O)C(=O)O; cell line = cerebellar granule cells; test = neuroprotection; EC50 = 76 µM
Molecule = C#Cc1cccc(Nc2ncnc3cc(OCCOC)c(OCCOC)cc23)c1; cell line = human tumour organoids; test = viability, CellTiter-Glo; conditions = 72 h; EC50 = 12 µM
Molecule = CC1(C)CC(=O)C2=C(C1)Nc1cc(C(F)(F)F)ccc1NC2c1ccc(N2CCCC2)cc1 (stereo not drawn); cell line = SH-SY5Y; test = cytoprotection; conditions = added: thapsigargin 7.5 µM; EC50 = < 20 µM
Molecule = CCCCN1CCc2cc(OC)c(OC)cc2C1; cell line = pancreatic cancer cell lines; test = cell viability; conditions = 48 h, over all lines tested; EC50 = > 100 µM
Molecule = CC1(C)CC(=O)C2=C(C1)Nc1cc(Cl)ccc1NC2c1ccc(N2CCCCC2)cc1 (stereo not drawn); cell line = SH-SY5Y; test = cell growth or viability, MTS; EC50 = 40.4 µM
Molecule = CC1CCc2nc(N)c(C#N)c(-c3cccnc3)c2C1 (stereo not drawn); cell line = mouse bone marrow-derived dendritic cells; test = IL-10 release; conditions = pretreated 48 h, added: zymosan A for 18 h; EC50 = ~1 µM
Molecule = tetraglycine; cell line = HLA-DRB1*01-restricted CD4 T-cell clone; test = TNF-alpha production; conditions = MHC class II presentation, added: peptide-loaded mature macrophage-derived DC; EC50 = 0.035 µM
Molecule = CCCCN(CCCC)c1ccc(C2Nc3ccc(Cl)cc3NC3=C2C(=O)CC(C)(C)C3)cc1 (stereo not drawn); cell line = SH-SY5Y; test = cell growth or viability, MTS; EC50 = > 50 µM
Molecule = O=C1CCC(N2C(=O)c3cccc(NCCOCCOCCOCCN4CCN(c5ccc(-c6ccc7c(c6)C(=O)N(C(C(=O)Nc6nccs6)c6cc(F)ccc6O)C7)cc5)CC4)c3C2=O)C(=O)N1 (stereo not drawn); cell line = Ba/F3 EGFR L858R/T790M; test = cell proliferation; EC50 = 0.48 µM

Some of these lines once more:
Molecule = O=C1CCC(N2C(=O)c3cccc(NCCOCCOCCOCCN4CCN(c5ccc(-c6ccc7c(c6)C(=O)N(C(C(=O)Nc6nccs6)c6cc(F)ccc6O)C7)cc5)CC4)c3C2=O)C(=O)N1 (stereo not drawn); cell line = Ba/F3 EGFR L858R/T790M; test = cell proliferation; EC50 = 0.48 µM
Molecule = CC1(C)CC(=O)C2=C(C1)Nc1cc(C(F)(F)F)ccc1NC2c1ccc(N2CCCC2)cc1 (stereo not drawn); cell line = SH-SY5Y; test = cytoprotection; conditions = added: thapsigargin 7.5 µM; EC50 = < 20 µM
